Published values of several laboratories.
± gives the spread as reported.

C=C(NC(=O)c1csc(-c2nc3c(cc2O)-c2nc(cs2)C(=O)NC(C(C)O)C(=O)NC(=C(C)OC)c2nc(cs2)C(=O)NC2c4nc(cs4)C(=O)NC(COC(=O)c4c5c6c(cccc6n4O)COC(=O)C(OC4CC(C)(O)C(N(C)C)C(C)O4)C2OC5)c2nc-3cs2)n1)C(N)=O (stereo not shown)  MIC (Enterococcus faecalis; microbial growth, agar dilution; ATCC29212): 0.0312 µg/mL
O=CCNCCOn1c(=O)n(OCCNCCO)c(=O)n(OCCNCCOn2c(=O)n(OCCNCCO)c(=O)n(OCCNCCO)c2=O)c1=O  MIC (Aspergillus fumigatus; broth microdilution): 8 ± 2 µg/mL
CC1(C)[C@H](NC(=O)/C(=N\OCc2c(Cl)cccc2Cl)c2nsc(N)n2)C(=O)N1OS(=O)(=O)O  MIC (Serratia marcescens; agar dilution; ATCC 21074, susceptible): 8 µg/mL
COC1C=COC2(C)Oc3c(C)c(O)c4c(c3C2=O)C2=NC3(CCN(CC(C)C)CC3)NC2=C(NC(=O)C(C)=CC=CC(C)C(O)C(C)C(O)C(C)C(OC(=O)Nc2cscn2)C1C)C4=O (stereo not shown)  MIC (Mycobacteroides abscessus; broth microdilution; ATCC 19977): 0.026 µM
N=C(N)NCCC[C@@H]1NC(=O)[C@H](CCCNC(=N)N)NC(=O)[C@@H](C(c2ccccc2)c2ccccc2)NC(=O)[C@H](Cc2c[nH]c3ccccc23)NC(=O)[C@@H](C(c2ccccc2)c2ccccc2)NC(=O)[C@@H](CCCNC(=N)N)NC(=O)[C@@H](CCCNC(=N)N)NC1=O  MIC (Blastomyces dermatitidis; BD-3): 4 µg/mL
CC1(C)C(NC(=O)C(=NOCC(=O)N2CC3CCCC3C2C(=O)O)c2csc(N)n2)C(=O)N1OS(=O)(=O)O (stereo not shown)  MIC (Serratia marcescens; agar dilution; ATCC 21074, susceptible): 2 µg/mL
Cc1c(CN(C)C(=O)/C=C/c2cnc3c(c2)CC(N)C(=O)N3)oc2ccccc12 (stereo not shown)  MIC (Escherichia coli; broth microdilution; AR-0058): 8 µg/mL
CC1(C)[C@H](NC(=O)/C(=N\OC2(C(=O)O)CCCCC2)c2csc(N)n2)C(=O)N1OS(=O)(=O)O  MIC (Serratia marcescens; agar dilution; ATCC 21074, susceptible): 2 µg/mL
C[C@@H]1C(=O)O[C@@H](C)/C=C/C=C\[C@@H](C)[C@@H]2C=C[C@@H]3C[C@@]4(C)O[C@H]4[C@@H](C)[C@H]3[C@@H]2C(=O)C(Cl)(Cl)C1=O  MIC (Staphylococcus aureus; MSSA clinical isolate; CLI ERY resistant): 0.025 µg/mL
C=CCO/N=C(\C(=O)N[C@@H]1C(=O)N(OS(=O)(=O)O)C1(C)C)c1csc(N)n1  MIC (Serratia marcescens; agar dilution; ATCC 21074, susceptible): 1 µg/mL
N=C(N)NCCC[C@@H]1NC(=O)[C@@H](CCCNC(=N)N)NC(=O)[C@H](CCCNC(=N)N)NC(=O)[C@@H](C(c2ccccc2)c2ccccc2)NC(=O)[C@@H](C(c2ccccc2)c2ccccc2)NC(=O)[C@@H](C(c2ccccc2)c2ccccc2)NC(=O)[C@@H](CCCNC(=N)N)NC1=O  MIC (Blastomyces dermatitidis; BD-1): 1 µg/mL
CC1C=CC=CC(C)C2C=CC3CC(C)(O)C(Cl)C(C)C3C2C(=O)C(Cl)(Cl)C(=O)C(C)C(=O)O1 (stereo not shown)  MIC (Staphylococcus aureus; MRSA clinical isolate; OXA SXT resistant): 0.1 µg/mL
CCCC(C)Oc1cccc(NC(=O)c2cccnc2)c1 (stereo not shown)  MIC (Clavispora lusitaniae; microbial growth, broth dilution; MY1396): 64 µg/mL

A few entries again:
C[C@@H]1C(=O)O[C@@H](C)/C=C/C=C\[C@@H](C)[C@@H]2C=C[C@@H]3C[C@@]4(C)O[C@H]4[C@@H](C)[C@H]3[C@@H]2C(=O)C(Cl)(Cl)C1=O  MIC (Staphylococcus aureus; MSSA clinical isolate; CLI ERY resistant): 0.025 µg/mL
